Measurements pooled from the literature.
Parts stem from different laboratories: compare values within a part only.

Series 1
Target: RING finger protein unkempt homolog, zinc fingers 1-6, GST-SBP tag (UNK, Homo sapiens, UniProt Q9C0B0, residues 30-357)
Technique: RNA Bind-n-Seq
Molecule type: RNA
Medium: in vitro
Tested at: not given
Setting: RNA with constant flanks, ends assumed
Relative to: input RNA pool
Direction: higher = stronger binding
Quantity: bound/input enrichment
Construct (chain): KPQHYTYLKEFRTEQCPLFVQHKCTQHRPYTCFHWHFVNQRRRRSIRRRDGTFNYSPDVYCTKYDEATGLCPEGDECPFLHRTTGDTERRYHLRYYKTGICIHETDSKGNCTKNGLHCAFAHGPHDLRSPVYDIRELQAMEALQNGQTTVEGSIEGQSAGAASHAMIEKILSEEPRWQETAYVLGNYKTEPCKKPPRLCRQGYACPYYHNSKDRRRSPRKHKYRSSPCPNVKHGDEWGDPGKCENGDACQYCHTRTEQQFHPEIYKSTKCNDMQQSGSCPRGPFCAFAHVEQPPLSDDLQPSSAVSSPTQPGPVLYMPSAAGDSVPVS
GGGAGUUCUACAGUCCGACGAUCAAAAAACAACAGUUUUGUUGGCAUGUGAAGCUCCAGUUUCCUCAAAGUCAAGCUGAGUACACCGAAAAAAGAGUACCAGAUGAUAAAACUAUUAAUGAAAUCCUAAAACCUUACAUUGAUCAACAGAGGAUUGAGCAUCA: 0.0964 ratio
GGGAGUUCUACAGUCCGACGAUCUGACUGAAAUAUUAAUAUUUAAAAUACUUCAUUCCUUAAUUCUCCCUCAAUUGCUUUACCCACCGCCUAUUCAAUUCCUUUGUUUGGCGAACUCUGCAAAAUGUGUUACCCACUACUGAGCAACAGAGGAUUGAGCAUCA: 0.519 ratio
GGGAGUUCUACAGUCCGACGAUCCAUAGAGAAAUAAUUUCAUCCCCCAACUGUAGUAAUUGUUACAAUUUUAUAUAAAAAAUUAACCGUAUAUGCAGAAAAUGACCUGAAUUCCAUCCGCAACAAGGACACAUGGCUUUACAUCAACAGAGGAUUGAGCAUCA: 17.6 ratio
GGGAGUUCUACAGUCCGACGAUCAUAUCCAUAUAUACCUUCCAGUGUUCACACAGGAUGGGGUUCCCAGCCUUGCAUGGUUGCCCGGUUGGGGGCAGGCCCAGUCUGCUCAAGGCCCACGAUGAUCUUGGUGCUCCAGGCAGGCAACAGAGGAUUGAGCAUCA: 0.131 ratio

Series 2
Target: Histone acetyltransferase KAT6A, winged helix 2, GST fusion (KAT6A, Homo sapiens, UniProt Q92794, residues 85-181)
Technique: protein binding microarray
Molecule type: double-stranded DNA, one strand shown
Medium: in vitro
Tested at: not given
Setting: 8-mer, flanks averaged, mean of 2 arrays, mostly near background
Relative to: not given
Direction: higher = stronger binding
Quantity: E-score
Construct (chain): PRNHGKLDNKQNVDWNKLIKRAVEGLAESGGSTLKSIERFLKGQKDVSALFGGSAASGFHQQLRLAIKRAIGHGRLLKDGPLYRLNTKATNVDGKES
GTGCCCCA: 0.11
TACTCTGA: -0.0969
GCGGCAGC: 0.0655
GGGTGAGA: -0.173
ACCAAGAA: 0.198
ATCCAGTA: -0.245
GACGTCCA: -0.169

Series 3
Target: Protein C-ets-1 (ETS1, Homo sapiens, UniProt P14921, residues 1-441, full length assumed)
Chain of UniProt P14921 (whole entry, looked up): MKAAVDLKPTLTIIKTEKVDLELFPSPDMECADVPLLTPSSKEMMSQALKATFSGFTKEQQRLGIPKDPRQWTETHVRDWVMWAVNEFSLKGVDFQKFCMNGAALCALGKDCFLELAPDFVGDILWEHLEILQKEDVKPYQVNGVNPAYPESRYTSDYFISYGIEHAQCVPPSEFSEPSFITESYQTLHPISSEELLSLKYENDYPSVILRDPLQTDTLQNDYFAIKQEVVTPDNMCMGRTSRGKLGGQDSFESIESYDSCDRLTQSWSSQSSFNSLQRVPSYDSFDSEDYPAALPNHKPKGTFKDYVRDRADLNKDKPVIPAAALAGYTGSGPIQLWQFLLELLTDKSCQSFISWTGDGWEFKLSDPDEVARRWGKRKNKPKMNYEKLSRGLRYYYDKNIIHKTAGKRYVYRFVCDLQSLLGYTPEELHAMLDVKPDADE
Technique: protein-binding microarray
Molecule type: double-stranded DNA, one strand shown
Medium: in vitro
Tested at: not given
Setting: k-mer, scored over probes, only values ≥0.25
Direction: higher = stronger binding
Quantity: E-score
GAACTTCC: 0.471
GGAAATGA: 0.44
AGACATCC: 0.397
AATTTCCT: 0.457
CCCGTCCG: 0.338
GAACGTCC: 0.306

Mixed results
PhoQ, residues 284 288 289 292 302 303 AAQSYM — fold induction (PhoP, residues 12 14 15 18 19 SQCLL (Escherichia coli, UniProt P23836); Sort-seq, measured: YFP reporter; E. coli; PhoQ-PhoP variant library, added: 10 µM Mg2+; relative to: high Mg2+ state, higher = stronger signaling): 11.5

Some of these lines once more (mixed results):
PhoQ, residues 284 288 289 292 302 303 AAQSYM — fold induction (PhoP, residues 12 14 15 18 19 SQCLL (Escherichia coli, UniProt P23836); Sort-seq, measured: YFP reporter; E. coli; PhoQ-PhoP variant library, added: 10 µM Mg2+; relative to: high Mg2+ state, higher = stronger signaling): 11.5
